# Experimental data of several laboratories.
# Compare with care: the assays were run in different laboratories. Values joined by “and” are separate records of one study, mostly repeats; a detail may differ.
# Target: Dual specificity protein kinase CLK1 (CLK1, Homo sapiens, UniProt P49759)
Compound,assay,system,setting,scale,quantity,value
Nc1ncc(-c2cc(-c3cnn(CC(F)(F)F)c3)ncc2F)nc1C(=O)NC1CNCC(F)C1 (stereo not drawn),enzyme activity,,1 µM,baseline: DMSO control,remaining activity,57.6%
C=CC(=O)Nc1cc(-c2nn(C3CCN(CCNC(=O)[C@H](C)CCC45CC6CC(CC(C6)C4)C5)CC3)c3ncnc(N)c23)ccc1Oc1ccccc1,"inhibitor, KiNativ profiling",biochemical,2 µM,,inhibition,-0.3%
NC(=O)[C@@H](O)C[C@H]1CCc2sc3ncnc(O[C@H]4CC[C@H](N5CCOCC5)CC4)c3c21,"enzyme activity, inhibitor",,10 µM,,inhibition,99%
C=CC(=O)Nc1cccc(-c2cnc3[nH]cc(C(=O)NC(C)(C)C)c3n2)c1,"enzyme activity, inhibitor",,0.1 µM,,inhibition,11%
O=C(Cc1ccc(OCc2ccccc2)cc1)NC1(C(=O)O)CCN(C(=O)c2ccc(-c3cccc(Cl)c3)cc2)CC1,"enzyme activity, inhibitor",,10 µM,,activity vs control,111%
CNC1C[S+]2CC[S+]3CC[S+](C1)[Ru-4]321([N]=C=S)[n]2c3ccc(OC)cc3c3c4c(c5cc(F)c[n+]1c5c32)C(=O)NC4=O (stereo not drawn),KinomeScan,,0.1 µM,baseline: untreated,remaining binding,94%
CC(C)=CC1OC(C)(C)C2C=C3C(=O)C(Cl)=CC(O)C3C3C(O)C4OC4C(=O)C132 (stereo not drawn),"cell-free assay, competition with immobilised ligand",,10 µM,,remaining binding,93%
C=CC(=O)N1Cc2nc(-c3cc(-c4cc(Cl)cnc4Cl)c(F)cc3F)n(-c3ccncn3)c2C1,"cell-free assay, inhibitor",,1 µM,,inhibition,6.4%
CCN1CCN(Cc2ccc(C(=O)Nc3ccc(C)c(NCc4cnc5[nH]ccc5c4OC)c3)cc2C(F)(F)F)CC1,"binding, competition with immobilised ligand",,1 µM,,remaining binding,83%
COc1ccc(O)cc1-c1c[nH]c2ncc(-c3cncc(C(=O)N(C)C)c3)cc12,"binding, competition with immobilised ligand",,0.2 µM,,inhibition,10%
C[C@H]1CN(C(=O)c2cn(-c3ccnc(N)n3)c3cc(C#CC4(O)CCCCC4)ccc23)CCN1,"enzyme activity, inhibitor, FRET",,1 µM,,inhibition,2%
Cc1cccc(O[C@H]2CCC[C@@H](C(C)CNCc3ccncc3)C2)c1 (relative stereo),"enzyme activity, inhibitor",,10 µM,,inhibition,-4%
COCC12C(=O)NC3C4(C(OC)CC1O)C1CC5(O)C(OC)C(O)C(OC(C)=O)(C1C5OC(=O)c1ccccc1)C3(O)C(OC)C24 (stereo not drawn),"kinase activity, inhibitor, ProQinase kinase profiling",,25 µM,baseline: control,remaining activity,98% and 97%
COc1cc(Nc2nccc(-c3cnn4nc(OC)ccc34)n2)cc(C(F)(F)F)c1,"binding, competition with immobilised ligand",,1 µM,,remaining binding,8%
C=CC(=O)N1CCCC(n2c(=O)c3ncccc3n(Cc3ccc(Oc4ccccc4)cc3)c2=O)C1 (stereo not drawn),"cell-free assay, competition with immobilised ligand",,1 µM,,remaining binding,93%
